Published values gathered from unrelated publications.
Each numbered part is a random draw from the data of one study; scales do not carry over between parts. Substitutions count along the parent as printed.

Study 1 — target: CREB5, bZIP domain (human); method: DHFR protein complementation; sample: yeast; baseline: wild-type JUN-FOS pair; direction: higher = stronger binding
Notes: single substitutions, most at no-binding floor
Starting sequence: JUN, bZIP domain (human); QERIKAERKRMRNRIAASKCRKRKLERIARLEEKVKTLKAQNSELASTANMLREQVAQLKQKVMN; partner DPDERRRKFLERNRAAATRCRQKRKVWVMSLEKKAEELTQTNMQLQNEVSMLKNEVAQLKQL
The binding fitness of `A46F` is reported as -0.475 natural log.
`S43R` has a binding fitness of -0.194 natural log.
`S47M` gave a binding fitness of -0.324 natural log.
With `V35C` the binding fitness was -0.285 natural log.
`L31Q` has a binding fitness of -1.29 natural log.
`V56Y` gave a binding fitness of -0.955 natural log.
With `T37P` the binding fitness was -1.4 natural log.
`A49N` gave a binding fitness of -1.24 natural log.
The binding fitness of `M51W` is reported as -0.5 natural log.
With `A46V` the binding fitness was -0.245 natural log.
For `L31Y`, the binding fitness was -0.824 natural log.
`E32S` has a binding fitness of -0.526 natural log.
The binding fitness of `R30A` is reported as -0.0164 natural log.
`L52Q` gave a binding fitness of -1.45 natural log.
For `V35M`, the binding fitness was -0.716 natural log.
`S43P` has a binding fitness of -1.33 natural log.
For `R53W`, the binding fitness was -1.26 natural log.

Study 2 — method: RNA Bind-n-Seq; form: RNA; sample: in vitro; tested at: 365 nM; baseline: no-protein control; direction: higher = stronger binding
Target: RNA binding protein fox-1 homolog 2, RRM domain, GST-SBP tag (RBFOX2, Homo sapiens, UniProt O43251-10, residues 100-194)
Notes: natural RNA segment, single round, ends assumed
Residues (chain): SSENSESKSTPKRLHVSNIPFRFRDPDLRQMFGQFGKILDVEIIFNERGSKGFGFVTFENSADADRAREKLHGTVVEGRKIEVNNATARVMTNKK
`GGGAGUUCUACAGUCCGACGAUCGCAACUUAGUGGAAGGAAUUACUUCCUCCUGAGGCUACAGGCGAGAAAGGUAGGGAUGGGCCAGCCUCCCGUCUCAGCUGUUGGGAGACAGUAGGCAGGCUGAGUGGCCCUGGAAUUCUCGGGUGCCAA` — result for “RBNS enrichment (R)”: 2.42.
For `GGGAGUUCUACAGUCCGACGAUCUAAGAUGGCACCAGCAUCACUUUCCGUGUAGAGGCUGCUUUUCUUGGAGUUCAUGUGAAGGAAUGUCUUUUUAAAUAAUGCUACUCUGAUGCCAUAAUUUUCUAUGGCUCUGGAAUUCUCGGGUGCCAA`, “RBNS enrichment (R)” read 0.268.
`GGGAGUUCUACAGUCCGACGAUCUCCAAAUUCCAGGAAGGUGCAGAGAUGCCUCUGAGCCCCGAGGAAAAGAAUCCCUUGAGCAUCUCCCUAGGAGUCCACCCCCUGGAUUCCUUUACUCAAGGGUUUGGGGAUGGAAUUCUCGGGUGCCAA`: “RBNS enrichment (R)” 0.214.
For `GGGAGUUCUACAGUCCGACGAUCGGCUGCUUUGCAGUCCCUGCUAAAGGGACCACCAGAGGGAGGGACAGUUCGUACGGCCCUCUCAGCACGCGUCAUGAGUGGGACUGGAGCCCCUGCGGGACUAGCACAGCUGGAAUUCUCGGGUGCCAA`, “RBNS enrichment (R)” read 0.488.
`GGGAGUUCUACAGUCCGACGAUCAUCCAUGGUCCUUGAGCUCCAGAGCGGAGGGAGAUUCUCUCAGCAGGCCCAUCUCACAAAGACUGGGGAUGUGAACACAUUGGUGUGAGUCAUCAGAAACCCCGUACUCAUGGAAUUCUCGGGUGCCAA`: “RBNS enrichment (R)” 0.267.
For `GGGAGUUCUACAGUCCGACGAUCUCACUCUCUGAAGCACACAUCAUUGGCUUUCCUAUUUUUCUGUUCAUUUUUUAAUUGAGCAAAUGUCUAUUGAACACUUAAAAUUAAUUAGAAUGUGGUAAUGGACAUAUUGGAAUUCUCGGGUGCCAA`, “RBNS enrichment (R)” read 0.502.
`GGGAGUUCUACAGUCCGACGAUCGGGAUGAGCCCAGGGUUUCAUGCAUGCCAGCAAACAUUCUACUAUCUGAGCAAUGUCCCCAGUGUCCCCUCUGGUCAUGUCCUGUUUCUGCCUCAGGGAUUGUCUCUGUUUGGAAUUCUCGGGUGCCAA`: “RBNS enrichment (R)” 2.88.
`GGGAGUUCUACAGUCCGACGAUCUGACGUUCGAAUUGAUAGAAACGCUUAGCAGUUGCCUUUUUUAAACAUCGAUACGAGACCUCUGAAUUUGUAUUUUUUCUUGUUAACCAUUUUAAUUUGUUGGCUGGAUGUGGAAUUCUCGGGUGCCAA` — result for “RBNS enrichment (R)”: 0.926.
For `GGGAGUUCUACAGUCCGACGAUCCUGGUCAGCACAGUCCCCAGCGGAGGCUCAUGGUGUCUCAUUAAACCAUCACAUACCAGUAACUCGGUGGGCAGGGAGUCUGUUCCCCCGUCCUUGCAUUCCGCUGGCUGUGGAAUUCUCGGGUGCCAA`, “RBNS enrichment (R)” read 0.333.
`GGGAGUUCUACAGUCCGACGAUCGACCAUUUCACCCAUUGCCCCAUCACAGCAAUAAUGUCCCCGCUACUGGGGACCCGAGCCAGCCAGGCCAUGUUUGCAGGGAAGGAUGCCAAGCAGGGCCUGCCCUGACAUGGAAUUCUCGGGUGCCAA`: “RBNS enrichment (R)” 0.677.
For `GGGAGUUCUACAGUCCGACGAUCUGCUGUCGCAGAUCCUCUCUCUGGCCCUGUUUUGGGGAGGGCCAUUCUUGGUCCUAAGGUUCAUAGUUGAGGCCUUCUGUUCCAGCCUUAUGCUCCCAUCUCAGAGUUCAUGGAAUUCUCGGGUGCCAA`, “RBNS enrichment (R)” read 0.238.
For `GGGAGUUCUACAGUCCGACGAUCCCUGUUCUGUGGCAUUCAUGAAAAACAAGUUGAAGAAUUUGUUUAUCUGGAAUUGUUUCUAAAUAUAAGUCAUUUGUAGCAAGACUUUGGAAGCAUUCUUUCUUAAACAUUGGAAUUCUCGGGUGCCAA`, “RBNS enrichment (R)” read 0.822.

Study 3 — method: protein binding microarray; form: double-stranded DNA, one strand shown; sample: in vitro; tested at: not given; baseline: not given; direction: higher = stronger binding
Target: Histone acetyltransferase KAT6A, winged helix 1, GST fusion (KAT6A, Homo sapiens, UniProt Q92794, residues 1-85)
Notes: 8-mer, flanks averaged, mean of 2 arrays, mostly near background
Residues (chain): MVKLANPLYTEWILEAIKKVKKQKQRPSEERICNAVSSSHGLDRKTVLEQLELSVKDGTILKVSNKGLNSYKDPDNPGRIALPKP
For `AACATAGC`, the E-score was -0.157.
`CCGCAACA` has an E-score of 0.185.
With `AAATTCGG` the E-score was 0.0855.
With `ACGATCTC` the E-score was -0.109.
With `ACCTAGTG` the E-score was -0.19.
`AGGACGGC` has an E-score of 0.319.
`AAGCTTGG` gave an E-score of -0.092.
For `CTTAGTTC`, the E-score was -0.0549.
`AGGGCAAA` gave an E-score of -0.0299.
`AGGCTAAT` has an E-score of -0.21.
`CCACCCCA` gave an E-score of -0.286.
With `AACGTAGC` the E-score was -0.0367.
The E-score of `GCACGATA` is reported as 0.044.
The E-score of `CTGATTCC` is reported as -0.0669.
For `CTGGACAC`, the E-score was -0.297.
For `AGCGTCGC`, the E-score was 0.382.
With `CCACTGCA` the E-score was -0.176.
The E-score of `AACAGTGC` is reported as 0.00414.
With `GAATTGAA` the E-score was -0.245.
`CGAGGGCG` has an E-score of 0.331.
`CGTTCCTA` has an E-score of -0.123.
With `GTGTTAAA` the E-score was -0.15.
For `AACAGACA`, the E-score was -0.142.
With `AGCCCCAA` the E-score was -0.282.
`GTACGAAA` has an E-score of -0.104.

Study 4 — method: DHFR PCA, deep sequencing; sample: yeast; added: (+)-ABA 0.39 µM; baseline: wild-type fitted maximum; direction: higher = stronger binding
Target: ABI1, truncated, D143A, DHFR fusion (Arabidopsis thaliana)
Notes: methotrexate growth selection, single substitutions
Starting sequence: PYL1, truncated, DHFR fusion (Arabidopsis thaliana); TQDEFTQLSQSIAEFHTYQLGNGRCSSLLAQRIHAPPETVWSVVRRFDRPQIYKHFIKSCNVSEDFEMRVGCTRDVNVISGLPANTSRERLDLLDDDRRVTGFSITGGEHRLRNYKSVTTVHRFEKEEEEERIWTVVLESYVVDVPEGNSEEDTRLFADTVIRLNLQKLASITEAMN; partner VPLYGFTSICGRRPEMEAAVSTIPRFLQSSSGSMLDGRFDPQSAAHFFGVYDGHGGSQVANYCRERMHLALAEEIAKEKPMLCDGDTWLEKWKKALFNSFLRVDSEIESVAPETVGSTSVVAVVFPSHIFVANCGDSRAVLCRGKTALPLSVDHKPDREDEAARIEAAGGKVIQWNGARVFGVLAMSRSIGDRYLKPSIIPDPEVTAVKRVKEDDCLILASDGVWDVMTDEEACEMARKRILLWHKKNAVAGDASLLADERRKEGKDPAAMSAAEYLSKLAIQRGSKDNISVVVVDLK
For `T135L`, “relative binding score” read -7.21%.
For `H122Q`, “relative binding score” read -3.31%.
`H55M`: “relative binding score” 63.7%.
`S11H`: “relative binding score” 32.1%.
For `F66T`, “relative binding score” read 10.4%.
`K168L` — result for “relative binding score”: 2.95%.
`D65E` — result for “relative binding score”: 21.6%.
`A30C` — result for “relative binding score”: 32.1%.
`S59N`: “relative binding score” 30.3%.
`F103R`: “relative binding score” -2%.
`Q19W`: “relative binding score” -1.22%.
`D97K`: “relative binding score” 48.3%.
Under “relative binding score”, `G81S` is recorded as 36.7%.
For `I33V`, “relative binding score” read 13.5%.
`C72S`: “relative binding score” 41.1%.
For `W134G`, “relative binding score” read 34.3%.

Repeated from above (study 3):
With `GAATTGAA` the E-score was -0.245.
With `AACGTAGC` the E-score was -0.0367.
With `GTGTTAAA` the E-score was -0.15.
For `CTGGACAC`, the E-score was -0.297.
With `AGCCCCAA` the E-score was -0.282.
For `CTTAGTTC`, the E-score was -0.0549.
With `CCACTGCA` the E-score was -0.176.
`AGGACGGC` has an E-score of 0.319.
